Published values of several laboratories.
Each line is one published result; not all experiments were run side by side. ± marks the error that the study gave.
Melanocortin receptor 4: Melanocortin receptor 4 (Mus musculus, UniProt P56450)
UniProt P56450, sequence (whole entry, looked up): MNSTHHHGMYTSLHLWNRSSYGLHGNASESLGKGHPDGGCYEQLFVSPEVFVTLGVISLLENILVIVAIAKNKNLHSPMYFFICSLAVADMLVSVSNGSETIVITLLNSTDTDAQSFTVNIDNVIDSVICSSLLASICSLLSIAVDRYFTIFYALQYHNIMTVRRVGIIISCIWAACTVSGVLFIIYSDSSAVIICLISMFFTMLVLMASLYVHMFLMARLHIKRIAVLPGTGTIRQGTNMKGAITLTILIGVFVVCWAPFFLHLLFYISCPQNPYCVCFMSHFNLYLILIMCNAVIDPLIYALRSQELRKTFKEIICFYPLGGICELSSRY
UniProt P33766, sequence (whole entry, looked up): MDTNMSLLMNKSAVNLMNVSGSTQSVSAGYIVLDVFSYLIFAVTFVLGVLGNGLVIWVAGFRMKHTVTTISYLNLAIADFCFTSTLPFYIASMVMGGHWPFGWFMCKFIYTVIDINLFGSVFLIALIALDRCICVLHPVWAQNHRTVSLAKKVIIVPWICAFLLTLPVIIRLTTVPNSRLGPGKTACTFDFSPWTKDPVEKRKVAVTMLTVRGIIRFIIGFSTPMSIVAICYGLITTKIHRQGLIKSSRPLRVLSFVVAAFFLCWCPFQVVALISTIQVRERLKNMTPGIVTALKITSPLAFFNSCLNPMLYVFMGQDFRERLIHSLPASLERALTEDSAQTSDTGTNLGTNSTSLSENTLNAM
UniProt P43220, sequence (whole entry, looked up): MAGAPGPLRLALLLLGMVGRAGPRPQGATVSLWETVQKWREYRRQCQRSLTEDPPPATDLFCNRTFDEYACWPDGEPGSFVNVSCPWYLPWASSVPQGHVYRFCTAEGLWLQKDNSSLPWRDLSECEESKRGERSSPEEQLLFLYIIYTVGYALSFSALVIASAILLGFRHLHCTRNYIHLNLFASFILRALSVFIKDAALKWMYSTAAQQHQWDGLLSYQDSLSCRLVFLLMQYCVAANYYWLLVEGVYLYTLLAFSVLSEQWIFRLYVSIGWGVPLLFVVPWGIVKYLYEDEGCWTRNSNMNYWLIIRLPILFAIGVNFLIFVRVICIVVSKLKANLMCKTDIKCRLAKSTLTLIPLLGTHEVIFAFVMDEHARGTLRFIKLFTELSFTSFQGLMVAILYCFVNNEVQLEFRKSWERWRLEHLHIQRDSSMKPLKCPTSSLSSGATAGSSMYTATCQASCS
UniProt P33533, sequence (whole entry, looked up): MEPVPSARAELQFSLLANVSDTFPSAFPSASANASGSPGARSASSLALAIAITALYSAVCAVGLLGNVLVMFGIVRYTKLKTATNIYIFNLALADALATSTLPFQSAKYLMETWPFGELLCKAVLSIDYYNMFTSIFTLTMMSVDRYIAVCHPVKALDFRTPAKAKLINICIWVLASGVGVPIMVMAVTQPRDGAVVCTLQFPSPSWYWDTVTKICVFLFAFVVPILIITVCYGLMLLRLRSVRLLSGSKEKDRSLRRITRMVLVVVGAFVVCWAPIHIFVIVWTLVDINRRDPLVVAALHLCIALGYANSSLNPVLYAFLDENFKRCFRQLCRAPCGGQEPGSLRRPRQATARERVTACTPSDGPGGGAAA
UniProt P48546, sequence (whole entry, looked up): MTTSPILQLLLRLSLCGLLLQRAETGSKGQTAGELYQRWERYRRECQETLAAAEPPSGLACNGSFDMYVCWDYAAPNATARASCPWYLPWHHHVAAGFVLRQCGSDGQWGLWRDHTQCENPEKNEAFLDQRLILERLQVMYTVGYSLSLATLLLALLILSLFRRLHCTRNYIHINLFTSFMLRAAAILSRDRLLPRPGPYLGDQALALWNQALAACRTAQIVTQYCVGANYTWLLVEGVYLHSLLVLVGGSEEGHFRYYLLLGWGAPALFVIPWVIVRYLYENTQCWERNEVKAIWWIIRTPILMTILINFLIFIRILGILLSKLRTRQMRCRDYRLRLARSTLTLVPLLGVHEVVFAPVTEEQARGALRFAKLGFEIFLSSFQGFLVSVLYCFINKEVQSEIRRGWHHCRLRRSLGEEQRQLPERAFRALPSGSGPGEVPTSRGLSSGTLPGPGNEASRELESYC
UniProt P35462, sequence (whole entry, looked up): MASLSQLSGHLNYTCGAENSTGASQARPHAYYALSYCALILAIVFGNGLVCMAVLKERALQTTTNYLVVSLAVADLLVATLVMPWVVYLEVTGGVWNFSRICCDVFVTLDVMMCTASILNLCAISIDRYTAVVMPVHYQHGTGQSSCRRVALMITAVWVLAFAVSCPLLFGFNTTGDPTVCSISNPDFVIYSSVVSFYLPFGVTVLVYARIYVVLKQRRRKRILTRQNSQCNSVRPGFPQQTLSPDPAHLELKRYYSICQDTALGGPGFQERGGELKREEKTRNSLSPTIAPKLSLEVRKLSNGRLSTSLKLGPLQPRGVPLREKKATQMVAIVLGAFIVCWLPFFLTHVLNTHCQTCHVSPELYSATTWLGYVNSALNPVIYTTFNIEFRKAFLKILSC
UniProt Q9LFP6, sequence (whole entry, looked up): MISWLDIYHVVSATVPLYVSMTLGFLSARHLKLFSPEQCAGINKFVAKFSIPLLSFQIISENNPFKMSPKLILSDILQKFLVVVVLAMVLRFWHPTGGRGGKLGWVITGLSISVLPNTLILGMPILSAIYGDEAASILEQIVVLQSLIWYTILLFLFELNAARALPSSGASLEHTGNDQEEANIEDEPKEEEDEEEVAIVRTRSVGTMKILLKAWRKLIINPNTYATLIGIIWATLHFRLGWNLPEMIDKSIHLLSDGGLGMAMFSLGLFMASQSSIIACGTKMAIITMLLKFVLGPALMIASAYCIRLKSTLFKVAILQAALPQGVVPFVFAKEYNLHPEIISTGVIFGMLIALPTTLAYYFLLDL

Compound	target	assay	system	conditions	EC50
CNC(C)CCc1ccccc1Cl (racemic)	D(3) dopamine receptor (DRD3, Homo sapiens, UniProt P35462)	GTPγS binding, agonist, radiometric		cell membranes	1280 nM
C[C@@H]1NC(=O)[C@H](CC(N)=O)NC(=O)[C@H](Cc2c[nH]c3ccccc23)NC(=O)[C@H](CCCNC(=N)N)NC(=O)[C@@H](Cc2ccccc2)NC(=O)[C@H](Cc2c[nH]cn2)NC(=O)[C@@H](NC(=O)[C@@H](N)Cc2ccc(O)cc2)CCCn2cc(nn2)-c2cccc(c2)-c2cn(nn2)CCC[C@@H](C(=O)N[C@@H](Cc2ccc(O)cc2)C(N)=O)NC(=O)[C@H](Cc2ccccc2)NC1=O	Melanocortin receptor 4	agonist			971 ± 213 nM
O=C(O)COc1ccc(Cl)cc1	PIN8 (Arabidopsis thaliana, UniProt Q9LFP6)	transport current, substrate, SSM electrophysiology	proteoliposomes		800000 ± 176000 nM
CC[C@H](C)[C@H](NC(=O)[C@H](Cc1ccccc1)NC(=O)[C@H](CCC(=O)O)NC(=O)[C@H](CCCCN)NC(=O)[C@H](C)NC(=O)[C@H](C)NC(=O)[C@H](CCC(N)=O)NC(=O)CNC(=O)[C@H](CCC(=O)O)NC(=O)[C@H](CC(C)C)NC(=O)[C@H](Cc1ccc(O)cc1)NC(=O)[C@H](CO)NC(=O)[C@H](CO)NC(=O)[C@@H](NC(=O)[C@H](CC(=O)O)NC(=O)[C@H](CO)NC(=O)[C@@H](NC(=O)[C@H](Cc1ccccc1)NC(=O)[C@@H](NC(=O)CNC(=O)N(CCC(=O)O)NC(=O)[C@H](C)NC(=O)N(N)Cc1c[nH]cn1)[C@@H](C)O)[C@@H](C)O)C(C)C)C(=O)N[C@@H](C)C(=O)N[C@@H](Cc1c[nH]c2ccccc12)C(=O)N[C@@H](CC(C)C)C(=O)N[C@H](C(=O)N[C@@H](CCCNC(=N)N)C(=O)NCC(=O)N[C@@H](CCCNC(=N)N)C(=O)NCC(=O)O)C(C)C	Glucagon-like peptide 1 receptor (GLP1R, Homo sapiens, UniProt P43220)	cAMP reporter gene, agonist, CRE-luciferase	BHK cells expressing receptor		> 10 nM
CC(=O)N[C@@H](CCCNC(=N)N)C(=O)N[C@@H](CCCNC(=N)N)C(=O)N[C@H](C(=O)N1Cc2ccccc2C[C@H]1C(N)=O)[C@H](c1ccccc1)c1c[nH]c2ccccc12	Melanocortin receptor 4	cAMP, agonist, AlphaScreen			> 100000 nM
CC(C)C[C@@H]1NC(=O)[C@H](Cc2ccc(O)cc2)NC(=O)[C@@H](CO)NC(=O)[C@H](C)NC(=O)[C@@H](NC(=O)[C@@H]2CCCN2C(=O)[C@H](CC(N)=O)NC(=O)[C@H](Cc2ccc(O)cc2)NC(=O)[C@H](CCCCN)NC(=O)[C@H](C)NC(=O)[C@H](C)NC(=O)[C@@H](N)CC(N)=O)CSC1=O	Accessory gene regulator protein C (Staphylococcus epidermidis, UniProt Q8VSX2)				145 nM
Cc1cc(O)cc(C)c1CC(N)C(=O)NC1CCNc2c1cc(Cc1ccccc1)cc2C(F)(F)F (stereo not shown)	Delta-type opioid receptor (Oprd1, Rattus norvegicus, UniProt P33533)	GTPγS binding, agonist, radiometric		cell membranes	50 nM
CC[C@H](C)[C@H](NC(=O)[C@H](CC(N)=O)NC(=O)[C@@H](NC(=O)[C@H](Cc1ccccc1)NC(=O)[C@H](Cc1ccccc1)NC(=O)[C@H](CCSC)NC=O)[C@@H](C)CC)C(=O)N[C@@H](CC(C)C)C(=O)N[C@H](C(=O)N[C@@H](CC(C)C)C(=O)O)[C@@H](C)O	fMet-Leu-Phe receptor (Mus musculus, UniProt P33766)	calcium mobilisation, agonist, FLIPR Fluo-4	HEK-293T with Gα16		0.6 nM
Nc1ncnc2c1ncn2C1CCC(OC(C(=O)O)P(=O)(O)O)C1 (racemic)	Gag-Pol polyprotein, reverse transcriptase (gag-pol, Human immunodeficiency virus type 1 group M subtype B, UniProt P04585)	post-translocation trapping, Fe2+ footprinting		50% complexes post-translocated	160 ± 34 nM
CC[C@H](C)[C@H](NC(=O)[C@H](CO)NC(=O)[C@H](Cc1ccc(O)cc1)NC(=O)[C@H](CC(=O)O)NC(=O)[C@H](CO)NC(=O)[C@@H](NC(=O)[C@H](Cc1ccccc1)NC(=O)[C@@H](NC(=O)CNC(=O)[C@H](CCC(=O)O)NC(=O)C(C)(C)NC(=O)[C@@H](N)Cc1ccc(O)cc1)[C@@H](C)O)[C@@H](C)CC)C(=O)N[C@@H](C)C(=O)N[C@@H](CCSC)C(=O)N[C@@H](CC(=O)O)C(=O)N[C@@H](CCCCN)C(=O)N[C@H](C(=O)N[C@@H](CCCNC(=N)N)C(=O)N[C@@H](CCC(N)=O)C(=O)N[C@@H](CCC(N)=O)C(=O)N[C@@H](CC(=O)O)C(=O)N[C@@H](Cc1ccccc1)C(=O)N[C@H](C(=O)N[C@@H](CC(N)=O)C(=O)N[C@@H](Cc1c[nH]c2ccccc12)C(=O)N[C@@H](CC(C)C)C(=O)N[C@@H](CC(C)C)C(=O)N[C@@H](C)C(=O)N[C@@H](CCC(N)=O)C(=O)N[C@@H](CCCNC(=N)N)C(=O)NCC(=O)N[C@@H](CCCCN)C(=O)N[C@@H](CCCCN)C(=O)N[C@@H](CO)C(=O)N[C@@H](CC(=O)O)C(=O)N[C@@H](Cc1c[nH]c2ccccc12)C(=O)N[C@@H](CCCCN)C(=O)N[C@@H](Cc1c[nH]cn1)C(=O)N[C@@H](CC(N)=O)C(=O)N[C@H](C(=O)N[C@H](C(=O)N[C@@H](CCC(N)=O)C(=O)O)[C@@H](C)O)[C@@H](C)CC)C(C)C)[C@@H](C)CC	Gastric inhibitory polypeptide receptor (GIPR, Homo sapiens, UniProt P48546)	reporter gene, agonist, luciferase			0.0043 nM

Some of these lines once more:
Compound	target	assay	system	conditions	EC50
CC(C)C[C@@H]1NC(=O)[C@H](Cc2ccc(O)cc2)NC(=O)[C@@H](CO)NC(=O)[C@H](C)NC(=O)[C@@H](NC(=O)[C@@H]2CCCN2C(=O)[C@H](CC(N)=O)NC(=O)[C@H](Cc2ccc(O)cc2)NC(=O)[C@H](CCCCN)NC(=O)[C@H](C)NC(=O)[C@H](C)NC(=O)[C@@H](N)CC(N)=O)CSC1=O	Accessory gene regulator protein C (Staphylococcus epidermidis, UniProt Q8VSX2)				145 nM
